Measured values collected from several papers.
Protocols differ between the studies behind these lines. Values joined by “and” are separate records of one study, mostly repeats; a detail may differ. Numbers after ± are the reported error.

Structure (SMILES) | target or system | test | test system | conditions | scale | measurement | result
NC(=O)N/N=C/c1ccc(OCc2ccccc2)cc1 | IMR-32 | MTT | – | 500 µg/mL, 24 h | reference: untreated control | viability | 9.47%
COc1cc(/C=C/C(=O)Oc2ccc(C(F)(F)F)c(C(F)(F)F)c2)ccc1OC(C)=O | HaCaT | cell growth or viability, MTT | – | 24 h | – | CC50 | 76.7 µM
O=C1NC2(CC2)COc2ncc(F)cc2[C@H]2COCCN2c2ccn3ncc1c3n2 | – | – | Sprague-Dawley rat, male, epididymides | oral, 10 mg/kg/day, end of treatment, 4-week repeated-dose toxicity | – | epididymis weight | 1.01 ± 0.084 g
COC(=O)c1cc2c(=O)n3ccccc3nc2n1Cc1ccccc1 | Vero | cytotoxicity, MTT | – | 24 (unit not given) | – | IC50 | 202 µM
CC[C@H](C)[C@H](NC(=O)[C@H](C)NC(=O)[C@H](CCCCN)NC(=O)[C@H](CCCCN)NC(=O)[C@@H](N)CCCNC(=N)N)C(=O)N[C@@H](CCCCN)C(=O)N[C@@H](CC(C)C)C(=O)N[C@H](C(=O)N[C@@H](CCCCN)C(=O)N[C@@H](CCCCN)C(=O)N[C@@H](CC(C)C)C(=O)N[C@H](C(=O)N[C@@H](CCCCN)C(=O)N[C@@H](CCCCN)C(=O)N[C@@H](CC(C)C)C(=O)N[C@@H](CCCCN)C(=O)N[C@@H](CCCCN)C(=O)N[C@@H](C)C(=O)N[C@@H](CC(C)C)C(=O)N[C@@H](CCCCN)C(=O)O)C(C)C)C(C)C | HeLa | MTT | – | 8 mg/L | reference: untreated | cell growth | 95.4% and 90.9% and 92.5%
CCN(CCCCOc1ccc(CCC(=O)N2CCC(Cc3ccccc3)CC2)cc1OC)Cc1ccccc1 | Caco-2 monolayer | – | – | 10 µM, 120 min | – | Papp(B-A) | 13.3 ± 1.29 ×10⁻⁶ cm/s
CC[C@H](C)[C@H](N)C(=O)N[C@@H](CCCNC(=N)N)C(=O)N[C@H](C(=O)N[C@@H](Cc1c[nH]c2ccccc12)C(=O)N[C@@H](CCCCN)C(=O)N[C@@H](CCCCN)C(=O)N[C@H](C(=O)N[C@H](C(=O)N[C@@H](CCCNC(=N)N)C(=O)N[C@@H](CCCCN)C(=O)N[C@@H](CCSC)C(=O)N[C@@H](CCCCN)C(=O)N[C@@H](C)C(=O)N[C@H](C(=O)N[C@@H](Cc1ccc(O)cc1)C(=O)N[C@@H](Cc1c[nH]cn1)C(N)=O)[C@@H](C)CC)C(C)C)[C@@H](C)CC)C(C)C | rat erythrocytes | – | – | 200 µM, 60 min, 37 °C | – | hemolysis | 0.2 ± 0.1%
CC(C)C[C@H](NC(=O)[C@H](CCC(=O)O)NC(=O)[C@H](C)NC(=O)[C@H](CC(C)C)NC(=O)[C@H](CCC(=O)O)NC(=O)[C@H](C)NC(=O)[C@H](CCC(N)=O)NC(=O)[C@H](CC(C)C)NC(=O)[C@H](CCC(=O)O)NC(=O)[C@H](Cc1ccc(O)cc1)NC(=O)[C@H](CC(C)C)NC(=O)[C@H](CCC(N)=O)NC(=O)[C@H](C)NC(=O)[C@H](CCC(=O)O)NC(=O)[C@H](CC(C)C)NC(=O)[C@H](CCC(N)=O)NC(=O)[C@H](C)NC(=O)[C@H](CC(C)C)NC(=O)[C@H](CCC(=O)O)NC(=O)[C@H](C)NC(=O)[C@@H](N)CCC(N)=O)C(N)=O | human erythrocytes | haemolysis | – | – | – | LC50 | > 250 µM
CC(C)C[C@H](NC(=O)[C@@H](NC(=O)[C@H](CCCCN)NC(=O)[C@H](CCCCN)NC(=O)[C@H](CC(C)C)NC(=O)[C@H](Cc1c[nH]c2ccccc12)NC(=O)[C@H](CCCCN)NC(=O)[C@H](CC(C)C)NC(=O)[C@H](CC(C)C)NC(=O)[C@H](CCCCN)NC(=O)[C@H](CCCCN)NC(=O)[C@@H](N)C(C)C)C(C)C)C(N)=O | sheep red blood cells | 10% haemolysis | – | 1 h, 37 °C | – | minimum haemolytic concentration | 124 µM
CC[C@H](C)[C@H](NC(=O)CNC(=O)[C@H](CC(C)C)NC(=O)[C@@H](NC(=O)CNC(=O)[C@H](CC(C)C)NC(=O)[C@H](CCC(N)=O)NC(=O)[C@@H](NC(=O)[C@H](CO)NC(=O)[C@H](C)NC(=O)[C@H](CCCCN)NC(=O)[C@H](CCCNC(=N)N)NC(=O)[C@H](CC(C)C)NC(=O)CNC(=O)[C@H](CCC(N)=O)NC(=O)[C@H](CC(C)C)NC(=O)[C@H](CC(C)C)NC(=O)[C@H](CCC(=O)O)NC(=O)CNC(=O)[C@H](CCCNC(=N)N)NC(=O)[C@@H](NC(=O)[C@H](CCCCN)NC(=O)[C@H](Cc1ccccc1)NC(=O)[C@H](CCCCN)NC(=O)[C@H](CCCCN)NC(=O)[C@H](CO)NC(=O)[C@H](CCCCN)NC(=O)[C@H](CC(C)C)NC(=O)[C@H](CC(C)C)NC(=O)[C@H](CCCCN)NC(=O)[C@H](CCCCN)NC(=O)[C@@H](NC(=O)[C@@H](NC(=O)[C@H](CCCCN)NC(=O)CNC(=O)[C@H](CC(C)C)NC(=O)[C@H](CCCCN)NC(=O)[C@H](C)N)[C@@H](C)O)[C@@H](C)CC)[C@@H](C)CC)C(C)C)[C@@H](C)O)C(=O)N[C@@H](CC(C)C)C(=O)O | HUVEC | cytotoxicity, MTT | – | 24 h, 37 °C | – | IC50 | 36.2 µM
CC[C@H](C)[C@H](NC(=O)[C@H](Cc1c[nH]c2ccccc12)NC(=O)[C@H](CCCCN)NC(=O)[C@H](CC(C)C)NC(=O)[C@@H](NC(=O)[C@@H](NC(=O)CNC(=O)[C@H](CCCCN)NC(=O)[C@H](Cc1c[nH]cn1)NC(=O)[C@H](CCCCN)NC(=O)[C@H](Cc1c[nH]c2ccccc12)NC(=O)[C@H](C)NC(=O)[C@H](CC(C)C)NC(=O)[C@H](CO)NC(=O)[C@@H](NC(=O)[C@H](Cc1ccc(O)cc1)NC(=O)[C@@H](N)CCCCN)C(C)C)[C@@H](C)O)[C@@H](C)CC)C(=O)N[C@@H](CC(N)=O)C(=O)N[C@@H](C)C(=O)NCC(=O)N[C@@H](CCC(N)=O)C(=O)N[C@@H](CO)C(=O)N[C@@H](Cc1ccccc1)C(=O)N[C@@H](CCC(=O)O)C(=O)N[C@@H](Cc1c[nH]c2ccccc12)C(=O)N[C@H](C(=O)N[C@@H](Cc1ccc(O)cc1)C(=O)N[C@@H](CCCCN)C(=O)N[C@@H](CCC(N)=O)C(=O)N[C@H](C(=O)N[C@@H](CCCCN)C(=O)N[C@@H](CCCCN)C(=O)N[C@@H](CC(C)C)C(=O)N[C@@H](Cc1c[nH]c2ccccc12)C(=O)N[C@@H](C)C(N)=O)[C@@H](C)CC)[C@@H](C)CC | human erythrocytes | hemolysis | – | pH 7.2 | reference: water complete hemolysis | HD50 | 200 µg/mL
CNC(=O)C[C@H](Cc1ccncc1)NC(=O)[C@@H](Cc1cccc(Br)c1)NC(=O)[C@@H](N)Cc1cccc(F)c1 | Huh-7-ACE2 | CellTiter-Glo | – | 0.0122 µM, 48 h, unit not given | reference: DMSO | viability | 0.963 and 1.02
CCN(CC)CCCC[C@H](NC(=O)[C@H](CC(C)C)NC(=O)[C@H](C)N(C)C(=O)[C@H](Cc1ccccc1)NC(=O)c1ccc(C(C)(C)C)cc1)C(=O)N[C@@H](CO)C(=O)OC | HEK-293T | CellTiter-Glo | – | up to 100 µM, 48 h | – | cytotoxicity | not toxic
CNC(=O)CC[C@H](Cc1ccccc1)NC(=O)[C@@H](Cc1ccc(Cl)cc1Cl)NC(=O)[C@H](N)Cc1ccccc1[N+](=O)[O-] | Huh-7-ACE2 | CellTiter-Glo | – | 0.00305 µM, 48 h, unit not given | reference: DMSO | viability | 0.923 and 0.937 and 1.03
CC(C)CC(NC(=O)OCc1ccccc1)C(=O)NC(CC1CCNC1=O)C(=O)C(=O)NC1CC1 (stereo not drawn) | MRC5 | – | – | 5 (unit not given) | – | CC50 | > 250 µM

A few entries again:
Structure (SMILES) | target or system | test | test system | conditions | scale | measurement | result
CC(C)C[C@H](NC(=O)[C@H](CCC(=O)O)NC(=O)[C@H](C)NC(=O)[C@H](CC(C)C)NC(=O)[C@H](CCC(=O)O)NC(=O)[C@H](C)NC(=O)[C@H](CCC(N)=O)NC(=O)[C@H](CC(C)C)NC(=O)[C@H](CCC(=O)O)NC(=O)[C@H](Cc1ccc(O)cc1)NC(=O)[C@H](CC(C)C)NC(=O)[C@H](CCC(N)=O)NC(=O)[C@H](C)NC(=O)[C@H](CCC(=O)O)NC(=O)[C@H](CC(C)C)NC(=O)[C@H](CCC(N)=O)NC(=O)[C@H](C)NC(=O)[C@H](CC(C)C)NC(=O)[C@H](CCC(=O)O)NC(=O)[C@H](C)NC(=O)[C@@H](N)CCC(N)=O)C(N)=O | human erythrocytes | haemolysis | – | – | – | LC50 | > 250 µM
CC[C@H](C)[C@H](N)C(=O)N[C@@H](CCCNC(=N)N)C(=O)N[C@H](C(=O)N[C@@H](Cc1c[nH]c2ccccc12)C(=O)N[C@@H](CCCCN)C(=O)N[C@@H](CCCCN)C(=O)N[C@H](C(=O)N[C@H](C(=O)N[C@@H](CCCNC(=N)N)C(=O)N[C@@H](CCCCN)C(=O)N[C@@H](CCSC)C(=O)N[C@@H](CCCCN)C(=O)N[C@@H](C)C(=O)N[C@H](C(=O)N[C@@H](Cc1ccc(O)cc1)C(=O)N[C@@H](Cc1c[nH]cn1)C(N)=O)[C@@H](C)CC)C(C)C)[C@@H](C)CC)C(C)C | rat erythrocytes | – | – | 200 µM, 60 min, 37 °C | – | hemolysis | 0.2 ± 0.1%
